Experimental data collected from several papers.
Numbers after ± are the reported error.
Target: 5-hydroxytryptamine receptor 2A (HTR2A, Homo sapiens, UniProt P28223)
Chain of UniProt P28223 (whole entry, looked up): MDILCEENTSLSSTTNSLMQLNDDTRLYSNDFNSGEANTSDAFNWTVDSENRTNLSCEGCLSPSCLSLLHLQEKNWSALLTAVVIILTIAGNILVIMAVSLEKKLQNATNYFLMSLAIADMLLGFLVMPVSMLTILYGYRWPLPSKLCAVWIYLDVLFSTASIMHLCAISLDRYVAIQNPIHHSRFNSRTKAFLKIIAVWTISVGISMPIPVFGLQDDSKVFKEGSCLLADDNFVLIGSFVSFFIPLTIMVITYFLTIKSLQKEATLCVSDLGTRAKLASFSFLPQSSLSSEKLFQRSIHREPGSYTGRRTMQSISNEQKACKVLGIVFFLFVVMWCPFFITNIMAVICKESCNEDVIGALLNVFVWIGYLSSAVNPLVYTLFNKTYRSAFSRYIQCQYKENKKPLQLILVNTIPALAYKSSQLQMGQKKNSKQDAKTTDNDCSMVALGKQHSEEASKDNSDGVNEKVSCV

SMILES	test	test system	setting	scale	endpoint	value
COc1cc(CCNC(C)c2ccccc2O)c(OC)cc1Br (stereo not drawn)	agonist	–	–	–	Emax	97%
CN1CCN(c2nc(N)c3ccccc3n2)CC1	radioligand binding, radioligand competition binding	–	0.1 µM, mean of two	relative to: control specific binding	inhibition	6.7%
COc1c(Br)c2c3c(c1OC)-c1cc4c(cc1C[C@@H]3N(C)CC2)OCO4	calcium flux, antagonist, FLIPR	HEK293	together with: serotonin	–	apparent Kb	48 ± 2 nM
CN1CCN(c2cc(-c3ccncc3)c(-c3ccc4ccccc4c3)nn2)CC1	antagonist, FLIPR	–	10 µM	–	inhibition	1.3%
COc1c(O)c(Br)c2c3c1-c1cc4c(cc1CC3N(C)CC2)OCO4 (stereo not drawn)	calcium flux, antagonist, FLIPR	HEK293	together with: serotonin	–	apparent Kb	126 ± 30 nM
CCN(CC)CCCC[C@H](NC(=O)[C@H](CC(C)C)NC(=O)[C@H](C)NC(=O)[C@H](Cc1ccccc1)NC(=O)c1ccc(C(C)(C)C)cc1)C(=O)N[C@@H](CO)C(=O)OC	antagonist, radioligand binding	–	10 µM	relative to: control binding	specific binding	61.2%
Cn1cccc1-c1cccnc1	binding	–	50 µM	–	inhibition	-11.3%
C/C=C1/CN2CC[C@]34C(=C(C(=O)OC)[C@H]1C[C@H]23)Nc1ccc(I)cc14	–	–	10 µM	–	inhibition	< 50%
COc1cc(CCNC(C)c2ccccc2O)c(OC)cc1C#N (stereo not drawn)	agonist	–	–	–	Emax	97%
CNC(C)Cc1ccc2n[se]nc2c1 (stereo not drawn)	agonist	–	–	relative to: 5-HT	Emax	45.8 ± 4.1%
COc1cc(CCNC(C)c2ccccc2)c(OC)cc1C#N (stereo not drawn)	agonist	–	–	–	Emax	74%
CC(C)N(CCc1c[nH]c2cccc(OC(=O)CCCC(=O)O)c12)C(C)C.Cl	inositol phosphate accumulation, agonist, HTRF IP1	HEK293	concentration not given	–	activity	inactive

Some of these lines once more:
SMILES	test	test system	setting	scale	endpoint	value
COc1c(Br)c2c3c(c1OC)-c1cc4c(cc1C[C@@H]3N(C)CC2)OCO4	calcium flux, antagonist, FLIPR	HEK293	together with: serotonin	–	apparent Kb	48 ± 2 nM
